Assay results collected from several papers.
Every numbered part comes from another study and shows a few of its results, in no order. Substitutions count along the parent as printed.

Sample 1 — method: protein binding microarray; form: double-stranded DNA, one strand shown; matrix: in vitro; concentration: not given; relative to: not given; reading: higher = stronger binding
Target: Histone acetyltransferase KAT6A, both winged helices, GST fusion (KAT6A, Homo sapiens, UniProt Q92794, residues 1-181)
Setting: 8-mer, flanks averaged, mean of 2 arrays, mostly near background
Residues (chain): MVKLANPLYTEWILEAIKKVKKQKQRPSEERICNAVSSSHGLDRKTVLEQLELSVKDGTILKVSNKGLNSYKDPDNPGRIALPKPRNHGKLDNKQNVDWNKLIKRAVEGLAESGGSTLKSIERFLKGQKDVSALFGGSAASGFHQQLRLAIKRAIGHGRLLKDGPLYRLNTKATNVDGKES
The E-score of `GAATCCCA` is reported as -0.289.
`CATTCGCG` gave an E-score of 0.195.
For `CCAGAAGG`, the E-score was -0.0557.
The E-score of `AAATGATA` is reported as 0.0246.
With `CTTCGGCA` the E-score was 0.143.
With `CATCCCGA` the E-score was 0.0641.
The E-score of `GCCTCAGA` is reported as 0.109.
The E-score of `AATTAACC` is reported as 0.127.

Sample 2 — target: CCND2, cyclin fold, Cln2 fusion (human); method: yeast growth competition, sequencing; matrix: yeast; setting: weak parent motif; relative to: not given; reading: higher = stronger binding
Parent: MASTL docking peptide (human); PMIAKNLMCELDE; partner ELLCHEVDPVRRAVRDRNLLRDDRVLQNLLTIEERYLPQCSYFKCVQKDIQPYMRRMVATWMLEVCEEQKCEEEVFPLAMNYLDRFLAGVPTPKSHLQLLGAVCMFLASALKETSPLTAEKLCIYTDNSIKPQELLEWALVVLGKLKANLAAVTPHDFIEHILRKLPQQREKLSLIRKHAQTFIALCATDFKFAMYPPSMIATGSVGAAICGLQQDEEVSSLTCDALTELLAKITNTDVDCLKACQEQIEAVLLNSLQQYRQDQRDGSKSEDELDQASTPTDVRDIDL
For `PMIAKNLMCELQE [D12Q]`, “normalised enrichment score” read 0.225.
`PMIAKNLMCELFE [D12F]` — result for “normalised enrichment score”: 0.0966.
`PMIQKNLMCELDE [A4Q]` — result for “normalised enrichment score”: -0.191.
`PMIAKVLMCELDE [N6V]`: “normalised enrichment score” 0.2.
`PMIAKNSMCELDE [L7S]`: “normalised enrichment score” 0.0377.

Sample 3 — method: universal PBM; form: double-stranded DNA, one strand shown; matrix: in vitro; concentration: 600 nM; reading: higher = stronger binding
Target: Sal-like protein 4, full length isoform A (SALL4, Homo sapiens, UniProt Q9UJQ4, residues 1-1053)
UniProt Q9UJQ4, sequence (whole entry, looked up): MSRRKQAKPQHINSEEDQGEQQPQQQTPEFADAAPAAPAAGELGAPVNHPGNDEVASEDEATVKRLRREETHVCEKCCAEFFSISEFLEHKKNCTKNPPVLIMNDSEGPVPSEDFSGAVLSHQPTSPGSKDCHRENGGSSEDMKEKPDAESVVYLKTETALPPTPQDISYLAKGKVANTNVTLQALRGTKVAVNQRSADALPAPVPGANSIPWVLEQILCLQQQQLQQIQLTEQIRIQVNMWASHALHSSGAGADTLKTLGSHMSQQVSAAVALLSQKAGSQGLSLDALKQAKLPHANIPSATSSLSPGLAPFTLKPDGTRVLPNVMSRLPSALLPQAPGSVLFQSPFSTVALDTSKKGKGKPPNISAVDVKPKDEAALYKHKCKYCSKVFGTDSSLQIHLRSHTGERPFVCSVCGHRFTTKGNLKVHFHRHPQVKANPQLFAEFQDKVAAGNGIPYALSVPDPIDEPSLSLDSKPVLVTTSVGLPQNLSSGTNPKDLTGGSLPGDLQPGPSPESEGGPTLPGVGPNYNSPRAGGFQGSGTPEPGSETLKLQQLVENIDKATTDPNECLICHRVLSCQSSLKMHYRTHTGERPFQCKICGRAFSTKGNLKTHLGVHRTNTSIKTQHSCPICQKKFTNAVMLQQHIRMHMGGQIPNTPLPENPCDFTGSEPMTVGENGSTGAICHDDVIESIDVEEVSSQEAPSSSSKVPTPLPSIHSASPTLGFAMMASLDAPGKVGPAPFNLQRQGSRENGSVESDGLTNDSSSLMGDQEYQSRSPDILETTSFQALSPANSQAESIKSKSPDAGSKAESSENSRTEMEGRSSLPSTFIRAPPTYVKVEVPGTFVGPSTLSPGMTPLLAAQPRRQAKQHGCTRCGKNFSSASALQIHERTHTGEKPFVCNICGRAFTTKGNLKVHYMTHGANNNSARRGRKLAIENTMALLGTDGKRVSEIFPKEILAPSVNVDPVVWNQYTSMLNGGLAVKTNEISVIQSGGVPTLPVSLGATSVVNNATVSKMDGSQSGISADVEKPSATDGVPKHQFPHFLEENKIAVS
Setting: 8-mer, flanks averaged, mean of replicates
For `GAGGGTCC`, the E-score was -0.326.
`CTTGACGC` has an E-score of -0.174.
For `AATGATAC`, the E-score was 0.28.
The E-score of `AATGGGCC` is reported as -0.251.
The E-score of `CAGATAGC` is reported as -0.175.
The E-score of `CGACCTAC` is reported as -0.305.
For `GCCGTAAC`, the E-score was 0.00177.
With `AAAATTCA` the E-score was 0.343.
With `AAGGAATA` the E-score was 0.211.

Single results of other studies
For `PhoQ, residues 284 288 289 292 302 303 AEGLLW`, the fold induction was 4.61 (PhoP, residues 12 14 15 18 19 SMASL (Escherichia coli, UniProt P23836); Sort-seq, item: YFP reporter; E. coli; PhoQ-PhoP variant library, with: 10 µM Mg2+; relative to: high Mg2+ state, higher = stronger signaling).

Excerpt of the above (sample 2):
`PMIAKNLMCELFE [D12F]` — result for “normalised enrichment score”: 0.0966.
